Measurements gathered from unrelated publications.
Parts stem from different laboratories: compare values within a part only. Several values in a cell are separate wells, animals, samples, runs or records.
Sequence of UniProt P41595 (whole entry, looked up): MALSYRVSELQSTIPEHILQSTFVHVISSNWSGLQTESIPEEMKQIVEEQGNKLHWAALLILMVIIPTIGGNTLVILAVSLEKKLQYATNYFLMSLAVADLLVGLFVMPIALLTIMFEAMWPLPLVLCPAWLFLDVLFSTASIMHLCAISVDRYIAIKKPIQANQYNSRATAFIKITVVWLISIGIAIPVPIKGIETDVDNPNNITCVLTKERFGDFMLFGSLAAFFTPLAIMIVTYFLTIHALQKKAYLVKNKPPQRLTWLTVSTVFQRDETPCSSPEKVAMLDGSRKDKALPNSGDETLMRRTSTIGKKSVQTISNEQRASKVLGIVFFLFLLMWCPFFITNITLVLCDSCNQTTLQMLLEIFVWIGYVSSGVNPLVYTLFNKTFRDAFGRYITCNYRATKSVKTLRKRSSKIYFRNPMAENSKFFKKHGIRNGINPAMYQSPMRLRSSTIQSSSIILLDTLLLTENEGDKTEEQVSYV
Sequence of UniProt P15056 (whole entry, looked up): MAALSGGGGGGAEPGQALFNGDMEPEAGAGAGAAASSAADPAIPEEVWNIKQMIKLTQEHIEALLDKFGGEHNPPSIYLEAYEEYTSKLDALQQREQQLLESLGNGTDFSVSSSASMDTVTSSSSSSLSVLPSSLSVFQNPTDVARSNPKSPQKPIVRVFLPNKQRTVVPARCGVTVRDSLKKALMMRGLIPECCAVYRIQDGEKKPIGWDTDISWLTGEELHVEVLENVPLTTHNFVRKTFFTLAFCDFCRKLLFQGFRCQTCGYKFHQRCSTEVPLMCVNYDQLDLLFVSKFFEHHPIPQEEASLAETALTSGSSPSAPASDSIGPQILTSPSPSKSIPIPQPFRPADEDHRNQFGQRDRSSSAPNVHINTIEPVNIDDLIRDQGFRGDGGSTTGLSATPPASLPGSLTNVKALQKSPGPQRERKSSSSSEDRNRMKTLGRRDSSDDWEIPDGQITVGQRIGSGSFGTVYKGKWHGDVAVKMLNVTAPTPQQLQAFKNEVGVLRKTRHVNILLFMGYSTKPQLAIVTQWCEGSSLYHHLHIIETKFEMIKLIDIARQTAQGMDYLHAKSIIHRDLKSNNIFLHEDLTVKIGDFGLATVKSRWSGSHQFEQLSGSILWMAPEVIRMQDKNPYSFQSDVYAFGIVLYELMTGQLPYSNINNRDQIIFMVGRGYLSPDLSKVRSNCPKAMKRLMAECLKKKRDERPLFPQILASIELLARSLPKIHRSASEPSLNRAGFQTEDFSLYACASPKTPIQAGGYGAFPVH
Sequence of UniProt P46098 (whole entry, looked up): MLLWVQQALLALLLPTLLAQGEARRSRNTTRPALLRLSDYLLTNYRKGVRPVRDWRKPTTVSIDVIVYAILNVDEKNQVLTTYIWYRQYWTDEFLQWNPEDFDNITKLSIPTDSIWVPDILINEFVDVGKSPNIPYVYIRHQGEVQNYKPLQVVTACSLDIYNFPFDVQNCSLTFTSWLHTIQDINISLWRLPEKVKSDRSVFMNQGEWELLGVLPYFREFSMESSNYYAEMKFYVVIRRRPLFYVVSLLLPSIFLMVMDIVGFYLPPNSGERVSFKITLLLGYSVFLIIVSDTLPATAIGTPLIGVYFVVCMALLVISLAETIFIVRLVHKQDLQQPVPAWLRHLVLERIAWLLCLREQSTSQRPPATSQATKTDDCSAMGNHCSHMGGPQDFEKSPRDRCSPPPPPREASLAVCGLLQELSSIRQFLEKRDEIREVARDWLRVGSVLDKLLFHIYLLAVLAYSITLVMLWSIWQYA

Set 1
Target: Mitogen-activated protein kinase kinase kinase 20 (MAP3K20, Homo sapiens, UniProt Q9NYL2)
Sequence of UniProt Q9NYL2 (whole entry, looked up): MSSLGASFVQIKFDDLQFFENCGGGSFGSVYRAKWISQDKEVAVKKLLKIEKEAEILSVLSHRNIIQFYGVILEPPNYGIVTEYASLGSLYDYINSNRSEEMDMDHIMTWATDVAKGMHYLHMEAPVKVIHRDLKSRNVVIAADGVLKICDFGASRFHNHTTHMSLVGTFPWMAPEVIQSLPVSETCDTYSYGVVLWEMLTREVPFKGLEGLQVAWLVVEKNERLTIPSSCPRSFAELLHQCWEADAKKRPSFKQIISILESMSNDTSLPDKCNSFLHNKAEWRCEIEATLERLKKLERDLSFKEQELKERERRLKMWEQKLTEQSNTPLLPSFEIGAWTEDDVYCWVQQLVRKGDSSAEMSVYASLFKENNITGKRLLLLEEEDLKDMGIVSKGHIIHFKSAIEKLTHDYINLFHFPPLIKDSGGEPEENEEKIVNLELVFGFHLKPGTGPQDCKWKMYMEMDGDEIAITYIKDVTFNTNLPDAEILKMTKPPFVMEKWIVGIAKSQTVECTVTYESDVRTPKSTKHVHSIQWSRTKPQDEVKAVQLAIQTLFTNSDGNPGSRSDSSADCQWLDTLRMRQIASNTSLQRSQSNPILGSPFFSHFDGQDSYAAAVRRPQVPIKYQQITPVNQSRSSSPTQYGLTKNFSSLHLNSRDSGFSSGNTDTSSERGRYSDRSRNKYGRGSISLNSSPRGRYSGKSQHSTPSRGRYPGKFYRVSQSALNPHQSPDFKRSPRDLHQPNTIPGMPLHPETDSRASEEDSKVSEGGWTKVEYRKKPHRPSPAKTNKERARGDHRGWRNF
Effect on: enzyme activity
Mode: inhibitor
Concentration: 0.5 µM
Baseline: control
Quantity: remaining activity
CCOC(=O)c1c(C)[nH]c(/C=C2\C(=O)Nc3ccccc32)c1C: 92.7%
O=C(Nc1cccc(Nc2cc(Nc3cccc(C(F)(F)F)c3)ncn2)c1)C1CC1: 97.1%
O=C1NC(=O)C(c2cn(CCCO)c3ncccc23)=C1c1cnccn1: 96.4%
Nc1ccc2ncnc(NCCc3ccc(Oc4ccccc4)cc3)c2c1: 102%
Cc1nc(-c2ccccc2)c(-c2ccncc2)o1: 89%
OCC(O)CCON=C1C(c2c(O)[nH]c3ccccc23)=Nc2ccccc21 (centres unmarked): 76.4%
CO[C@H]1C[C@@H]2CC[C@@H](C)[C@@](O)(O2)C(=O)C(=O)N2CCCC[C@H]2C(=O)O[C@H]([C@H](C)C[C@@H]2CC[C@@H](O)[C@H](OC)C2)CC(=O)[C@H](C)/C=C(\C)[C@@H](O)[C@@H](OC)C(=O)[C@H](C)C[C@H](C)/C=C/C=C/C=C/1C: 103%
Cn1sc(=O)n(Cc2ccccc2)c1=O: 100%
COc1ccc(OC)c2c(=S)c3ccccc3[nH]c12: 94%
NCCNc1ncc(C(N)=O)c(Nc2cccc(C(F)(F)F)c2)n1: 111%
Cc1ccc(Nc2nccc(N(C)c3ccc4c(C)n(C)nc4c3)n2)cc1S(N)(=O)=O: 96.9%
COc1ccc(C(=O)Nc2sc3c(c2C(N)=O)CCCC3)cc1OC: 93.8%
O=c1c2ccccc2[nH]c(=S)n1CCN1CCC(=C(c2ccc(F)cc2)c2ccc(F)cc2)CC1: 98.6%
C#Cc1cccc(Nc2ncnc3cc(OCCOC)c(OCCOC)cc23)c1: 92.2%
O=C(O)c1ccc2c3c1cccc3c(=O)n1c3ccccc3nc21: 100%

Set 2
Structure (SMILES): Cc1cc2c(C(N)=O)c(N)n(-c3c(C)ccc(O)c3C)c2nc1C
Quantity: inhibition
Serine/threonine-protein kinase B-raf (BRAF, Homo sapiens, UniProt P15056); kinase activity, ADP-Glo; 3.333 µM: 101%
HCC1569; automated capillary immunoblot, measured: CDK1 phospho-Thr14; 4.12 nM: 32.6%
LN-229; cell proliferation; 30000 nM: 97.8%
SW1463; cell proliferation; 41.15 nM: 7.75% and 3.72%
LN-229; cell proliferation; 10000 nM: 97.6%
HCC1569; automated immunoblotting, measured: CDK1 phospho-Thr14; concentration not given, 4 h after washout: 24.3%
RKO; cell proliferation; 123.5 nM: -5.88% and -5.57%
HCC1569; automated capillary immunoblot, measured: CDK1 phospho-Thr14; 333.33 nM: 81.7%

Set 3
SMILES: CNC(=O)c1ccc(Nc2ncc(C(F)(F)F)c(NCc3nccnc3N(C)S(C)(=O)=O)n2)cc1
Effect on: binding
Technique: radioligand binding
Concentration: 10 µM
Quantity: inhibition
5-hydroxytryptamine receptor 3A (HTR3A, Homo sapiens, UniProt P46098): 6.5%
Histamine H2 receptor (HRH2, Homo sapiens, UniProt P25021): 30.2%
5-hydroxytryptamine receptor 2B (HTR2B, Homo sapiens, UniProt P41595): 5.73%

Set 4
Target: DNA polymerase theta, ATPase domain (POLQ, Homo sapiens, UniProt O75417)
Sequence of UniProt O75417 (whole entry, unmodified, looked up): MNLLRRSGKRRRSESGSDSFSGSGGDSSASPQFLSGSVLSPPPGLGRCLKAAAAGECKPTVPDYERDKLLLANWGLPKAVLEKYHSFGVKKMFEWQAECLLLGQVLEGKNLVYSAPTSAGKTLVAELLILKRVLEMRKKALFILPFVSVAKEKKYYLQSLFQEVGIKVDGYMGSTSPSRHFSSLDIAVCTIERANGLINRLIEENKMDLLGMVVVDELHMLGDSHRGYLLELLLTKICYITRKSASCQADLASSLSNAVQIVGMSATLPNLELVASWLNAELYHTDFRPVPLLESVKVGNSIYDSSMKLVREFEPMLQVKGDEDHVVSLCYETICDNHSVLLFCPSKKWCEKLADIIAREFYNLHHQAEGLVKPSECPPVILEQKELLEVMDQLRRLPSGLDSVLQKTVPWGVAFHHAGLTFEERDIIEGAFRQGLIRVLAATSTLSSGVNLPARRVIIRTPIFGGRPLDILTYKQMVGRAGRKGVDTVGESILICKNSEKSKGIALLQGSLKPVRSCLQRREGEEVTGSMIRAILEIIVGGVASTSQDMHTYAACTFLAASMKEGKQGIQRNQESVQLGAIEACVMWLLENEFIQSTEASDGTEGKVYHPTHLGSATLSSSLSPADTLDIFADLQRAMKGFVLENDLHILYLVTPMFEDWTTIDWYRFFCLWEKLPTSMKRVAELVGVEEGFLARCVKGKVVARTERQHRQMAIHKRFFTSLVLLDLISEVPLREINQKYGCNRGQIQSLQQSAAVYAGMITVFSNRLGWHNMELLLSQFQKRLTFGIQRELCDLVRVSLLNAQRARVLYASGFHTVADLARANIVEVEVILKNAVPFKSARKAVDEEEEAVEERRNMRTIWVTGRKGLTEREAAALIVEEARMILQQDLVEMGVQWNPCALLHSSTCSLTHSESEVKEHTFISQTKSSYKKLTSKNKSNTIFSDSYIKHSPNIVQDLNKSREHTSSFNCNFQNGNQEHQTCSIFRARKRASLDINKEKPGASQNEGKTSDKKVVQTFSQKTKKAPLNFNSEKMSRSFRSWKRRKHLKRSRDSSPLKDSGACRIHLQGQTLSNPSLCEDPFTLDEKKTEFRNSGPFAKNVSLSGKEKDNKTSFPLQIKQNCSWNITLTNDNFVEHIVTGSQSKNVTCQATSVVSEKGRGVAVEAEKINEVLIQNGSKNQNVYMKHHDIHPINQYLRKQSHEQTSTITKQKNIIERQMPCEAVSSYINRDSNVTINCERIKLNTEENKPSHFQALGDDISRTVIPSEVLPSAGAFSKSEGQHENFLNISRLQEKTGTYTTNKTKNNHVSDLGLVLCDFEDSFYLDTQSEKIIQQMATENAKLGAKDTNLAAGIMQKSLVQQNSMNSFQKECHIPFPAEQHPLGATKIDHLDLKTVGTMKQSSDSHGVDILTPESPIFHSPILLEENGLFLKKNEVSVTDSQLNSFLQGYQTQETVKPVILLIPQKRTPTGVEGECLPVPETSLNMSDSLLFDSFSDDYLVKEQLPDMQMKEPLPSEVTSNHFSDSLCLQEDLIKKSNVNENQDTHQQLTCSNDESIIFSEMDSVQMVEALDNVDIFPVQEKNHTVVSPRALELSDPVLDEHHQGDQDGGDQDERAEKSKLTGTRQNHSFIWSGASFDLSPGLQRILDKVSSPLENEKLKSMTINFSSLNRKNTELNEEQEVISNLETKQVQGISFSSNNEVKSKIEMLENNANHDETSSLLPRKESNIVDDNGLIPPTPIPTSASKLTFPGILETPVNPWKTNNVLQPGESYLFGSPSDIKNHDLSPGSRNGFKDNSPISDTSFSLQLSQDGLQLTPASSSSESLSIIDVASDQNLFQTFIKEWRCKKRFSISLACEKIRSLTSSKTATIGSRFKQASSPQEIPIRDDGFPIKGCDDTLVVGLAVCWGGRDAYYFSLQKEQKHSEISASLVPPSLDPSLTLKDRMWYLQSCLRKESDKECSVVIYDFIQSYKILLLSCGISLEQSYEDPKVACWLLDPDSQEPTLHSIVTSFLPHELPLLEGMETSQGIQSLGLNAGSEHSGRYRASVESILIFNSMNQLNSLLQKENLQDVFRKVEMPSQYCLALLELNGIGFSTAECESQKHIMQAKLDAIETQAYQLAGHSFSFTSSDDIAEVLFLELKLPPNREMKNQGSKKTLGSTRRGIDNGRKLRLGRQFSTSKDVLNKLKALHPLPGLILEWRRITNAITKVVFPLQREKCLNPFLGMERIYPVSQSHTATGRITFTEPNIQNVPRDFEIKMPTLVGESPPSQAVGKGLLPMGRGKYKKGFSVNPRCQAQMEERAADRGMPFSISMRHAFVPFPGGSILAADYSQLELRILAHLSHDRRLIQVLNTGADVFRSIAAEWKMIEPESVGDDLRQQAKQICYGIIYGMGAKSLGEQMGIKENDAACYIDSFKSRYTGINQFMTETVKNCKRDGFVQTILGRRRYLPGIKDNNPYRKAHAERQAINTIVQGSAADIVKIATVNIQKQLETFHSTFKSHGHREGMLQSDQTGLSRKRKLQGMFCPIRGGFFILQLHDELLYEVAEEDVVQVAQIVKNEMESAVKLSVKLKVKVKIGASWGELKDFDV
Effect on: enzyme activity
Mode: inhibitor
Concentration: 77 µM
Baseline: untreated
Quantity: remaining activity
CCOc1ccc2c(c1)C(C)=CC(C)(C)N2: 101%
COc1ccc(-c2cc(=O)c3c(OC)c(OC)c(OC)c(OC)c3o2)cc1OC: 102%
C=CCSCC1Nc2cc(Cl)c(S(N)(=O)=O)cc2S(=O)(=O)N1 (centres unmarked): 91.8%
CNC(=N)NCCC[C@H](N)C(=O)O: 98.3%
CO/N=C(\C(=O)N[C@@H]1C(=O)N2C(C(=O)O)=C(CSC(=O)c3ccco3)CS[C@H]12)c1csc(N)n1: 91.1%
O=C1NC(=O)/C(=C/c2ccc3nccnc3c2)S1: 110%
O=C(O)c1cc(=O)c2c(OCC(O)COc3cccc4oc(C(=O)O)cc(=O)c34)cccc2o1: 105%
Nc1ccc(S(=O)(=O)Nc2ncccn2)cc1: 92.7% and 99.2%
COC(=O)[C@H]1[C@H]2C[C@H]3c4[nH]c5ccccc5c4CCN3C[C@H]2CC[C@@H]1O: 110%
